Experimental data gathered from unrelated publications.
Numbered parts are unrelated; each lists some results of a single study. Positions count from the first letter of the parent shown.

Block 1
Target: Ras GTPase-activating protein-binding protein 1, full length (G3BP1, Homo sapiens, UniProt Q13283)
Chain of UniProt Q13283 (whole entry, looked up): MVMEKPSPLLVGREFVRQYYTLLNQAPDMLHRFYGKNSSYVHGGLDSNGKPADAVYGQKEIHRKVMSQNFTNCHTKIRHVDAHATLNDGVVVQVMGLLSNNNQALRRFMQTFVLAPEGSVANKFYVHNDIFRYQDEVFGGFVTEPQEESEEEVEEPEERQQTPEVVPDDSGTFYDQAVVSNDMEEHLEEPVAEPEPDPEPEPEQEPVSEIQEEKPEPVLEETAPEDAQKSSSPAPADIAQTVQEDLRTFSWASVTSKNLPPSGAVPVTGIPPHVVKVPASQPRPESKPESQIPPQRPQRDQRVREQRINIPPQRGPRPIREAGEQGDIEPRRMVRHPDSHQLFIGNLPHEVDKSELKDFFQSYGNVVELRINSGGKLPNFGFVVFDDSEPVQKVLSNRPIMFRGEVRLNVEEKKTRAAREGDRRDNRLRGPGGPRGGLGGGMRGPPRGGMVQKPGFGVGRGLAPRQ
Method: RNA Bind-n-Seq
Molecule type: RNA
Sample: in vitro
Tested at: 200 nM
Notes: whole 134-nt RNA, ends assumed
Added: 150 mM LiCl
Baseline: input library
Reading: higher = stronger binding
Quantity: log2 enrichment
All molecules: 7-deaza-guanosine replaces G
Strand = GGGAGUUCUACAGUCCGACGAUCAGUCCUGUGCUACACAUCGUAUGUACCGAAUCGGGAAAGGGAAAAAAAGGGUUUGGGAAAGUAUUAUGUUACGCCGUUCGGAUCUGCACUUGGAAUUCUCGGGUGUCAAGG; value = -2.35
Strand = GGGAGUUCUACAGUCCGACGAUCCACAGACAACACGCACCCACACAGACACAGAGGGAAGGGGUUGGGAUGGGGACAGGGUGCACAGCAGGGCGGGGUAGGACCCCAGGCCCUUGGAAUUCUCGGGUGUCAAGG; value = -1.37
Strand = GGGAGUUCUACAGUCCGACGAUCCUGUGCUACACAUCGUAUGUACCGAAUCGGUUUUUUUGGUUUUUUUGGGGUUUUUUUGGGGAAAGUAUUAUGUUACGCCGUUCGGAUCUGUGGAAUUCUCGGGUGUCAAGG; value = 1.22
Strand = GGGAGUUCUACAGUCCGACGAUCCAAGUCCUGUGCUACACAUCGUAUGUACCGAAUCGGGGUUUGGUUUGGGUUUGGGAAAGUAUUAUGUUACGCCGUUCGGAUCUGCACUUCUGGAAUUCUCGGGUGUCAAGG; value = -0.614
Strand = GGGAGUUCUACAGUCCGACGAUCCACAGACAACACGCACCCACACAGACACAGAGGGAAGGGGUUGGGAUGGGGACAGGGUGCACAGCAGGGCGGGGUAGGAAAACAGCCCCUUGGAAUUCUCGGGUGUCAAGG; value = -0.0328
Strand = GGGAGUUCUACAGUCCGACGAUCAAGUCCUGUGCUACACAUCGUAUGUACCGAAUCGGAAAAAGGUUUUUGGUUUUUGGAAAGUAUUAUGUUACGCCGUUCGGAUCUGCACUUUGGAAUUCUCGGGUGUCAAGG; value = -2.44
Strand = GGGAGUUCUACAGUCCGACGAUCUGCAGACGGGGAACCUGCUGAACUGGGGCCGCCUGCGGAAGAAGUGCCCGUCCACGCACAGCGAGGAGGUGAGCGUGGCGACACUCGCCGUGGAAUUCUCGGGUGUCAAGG; value = -1.68
Strand = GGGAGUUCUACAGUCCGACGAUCUGGGAGGUGGAUUUUGUUUAUUUUUUUAGCUCAUUUCCAGGGGUGGGAAUUUUUUUUUUAUAUGUGUCAUGAAUAAAGUUGUUUUUGAAAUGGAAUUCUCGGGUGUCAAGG; value = -0.0112
Strand = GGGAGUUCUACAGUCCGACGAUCCUGUGCUACACAUCGUAUGUACCGAAUCGGGGAAAAAAAGGGGAAAAAAAGGAAAAAAAGGGAAAGUAUUAUGUUACGCCGUUCGGAUCUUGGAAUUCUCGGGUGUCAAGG; value = 0.374
Strand = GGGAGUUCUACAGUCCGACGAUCCCUUUUUGAGAAGGCCGGACCCAUUUGGGAUCUACGUCUUAUGAUGGAUCCACUGUCCGGUCAGAAUAGAGGGUAUGCAUUUAUCACCUUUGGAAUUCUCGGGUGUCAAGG; value = 0.294
Strand = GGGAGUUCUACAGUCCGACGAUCUAACUUUAGAGGAGGAUCUGAUGGAUAUGGGAGUGGACGUGGAUUUGGGGAUGGCUAUAAUGGGUAUGGAGGAGGACCUGGAGGUGGCAAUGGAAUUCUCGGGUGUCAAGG; value = -0.0906

Block 2
Target: CCNE2, cyclin fold, Cln2 fusion (human)
Method: yeast growth competition, sequencing
Sample: yeast
Notes: strong parent motif
Baseline: not given
Reading: higher = stronger binding
Quantity: normalised enrichment score
Starting sequence: CDC25A docking peptide (human); PPHRRRLLFACSP; partner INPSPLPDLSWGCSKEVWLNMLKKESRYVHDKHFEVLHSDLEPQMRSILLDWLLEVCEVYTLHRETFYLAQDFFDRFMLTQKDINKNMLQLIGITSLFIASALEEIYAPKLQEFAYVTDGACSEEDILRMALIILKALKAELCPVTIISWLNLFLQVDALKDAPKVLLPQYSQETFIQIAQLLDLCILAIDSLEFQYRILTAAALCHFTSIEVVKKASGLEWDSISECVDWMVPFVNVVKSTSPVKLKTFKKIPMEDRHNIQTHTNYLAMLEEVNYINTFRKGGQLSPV
Variant = PPHRRRLLFACSA [P13A]; value = 1.94
Variant = PPHRRVLLFACSP [R6V]; value = 1.69
Variant = PPHRRRLLFRCSP [A10R]; value = 1.7
Variant = MPHRRRLLFACSP [P1M]; value = 2.05
Variant = PPHSRRLLFACSP [R4S]; value = -0.0666
Variant = PPHRRRLTFACSP [L8T]; value = 2.96
Variant = PPHRRRLLIACSP [F9I]; value = 0.949
Variant = PPHRRRLLFACFP [S12F]; value = 1.65
Variant = PPHRRRLLFACIP [S12I]; value = 1.84
Variant = PPHKRRLLFACSP [R4K]; value = 2.43
Variant = PIHRRRLLFACSP [P2I]; value = 1.52
Variant = EPHRRRLLFACSP [P1E]; value = 3.74
Variant = PPHRRRLLFARSP [C11R]; value = 0.811
Variant = PPHRRRLIFACSP [L8I]; value = 3.25
Variant = PPHRRRLHFACSP [L8H]; value = 2.47
Variant = PPHRRRPLFACSP [L7P]; value = 0.179
Variant = PPHRRRLLFACSF [P13F]; value = 1.21

Block 3
Target: ABI1, truncated, D143A, DHFR fusion (Arabidopsis thaliana)
Method: DHFR PCA, deep sequencing
Sample: yeast
Notes: methotrexate growth selection, single substitutions
Added: (+)-ABA 710 µM
Baseline: wild-type fitted maximum
Reading: higher = stronger binding
Quantity: relative binding score
Starting sequence: PYL1, truncated, DHFR fusion (Arabidopsis thaliana); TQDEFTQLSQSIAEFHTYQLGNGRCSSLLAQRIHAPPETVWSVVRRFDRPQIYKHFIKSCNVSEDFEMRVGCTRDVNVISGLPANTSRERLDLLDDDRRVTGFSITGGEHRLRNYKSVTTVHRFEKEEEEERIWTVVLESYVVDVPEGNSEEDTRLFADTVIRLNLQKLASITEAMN
Variant = S27T; value = 84.1%
Variant = G108V; value = 34.9%
Variant = L94S; value = 81.8%
Variant = C25M; value = 88.8%
Variant = A158T; value = 104%
Variant = N177H; value = 110%
Variant = V145E; value = 53.9%
Variant = F157R; value = -0.648%

Other studies, line by line
Molecule = PhoQ, residues 284 288 289 292 302 303 ASVMEA; target = PhoP, residues 12 14 15 18 19 STHWV (Escherichia coli, UniProt P23836); assay = Sort-seq, measured: YFP reporter; system = E. coli; conditions = PhoQ-PhoP variant library, added: 10 µM Mg2+; how to read = baseline: high Mg2+ state, higher = stronger signaling; quantity = fold induction; value = 20.2

Excerpt of the above (block 2):
Variant = PPHRRRLLIACSP [F9I]; value = 0.949
Variant = PPHRRRLLFACFP [S12F]; value = 1.65
